Results gathered from unrelated publications.
Lines come from different studies, so protocols differ.
Organism: Pseudomonas aeruginosa

`CN1/C(=C/C=C/c2cc(-c3ccccc3)cc(-c3ccccc3)[o+]2)C(C)(C)c2ccccc21` gave an MIC of no less than 64 mg/L (microbial growth, broth dilution; ATCC27853).
For `CC(CCCOC(=O)CCC[N+](C)(C)C)C1CCC2C3CCC4CC(OC(=O)CCC[N+](C)(C)C)CCC4(C)C3CC(OC(=O)CCC[N+](C)(C)C)C12C` (stereo not drawn), the MIC was 250 mg/L (microbial growth, broth dilution; ATCC27853; 16 h).
`N#Cc1ccc2cccc(O)c2n1` gave an MIC of greater than 1500 µM (microbial growth, agar dilution; ATCC27853).
The MIC of `NCC1OC(OC2C(N)CC(N)C(OC3OC(CO)C(O)C(N)C3O)C2OCCCCCCCCCCCCn2cc(CNc3nc(NCc4cn(CCCCCCCCCCCCOC5C(OC6OC(CN)C(O)CC6N)C(N)CC(N)C5OC5OC(CO)C(O)C(N)C5O)nn4)nc(NCc4cn(CCCCCCCCCCCCOC5C(OC6OC(CN)C(O)CC6N)C(N)CC(N)C5OC5OC(CO)C(O)C(N)C5O)nn4)n3)nn2)C(N)CC1O` (stereo not drawn) is reported as 32 mg/L (microbial growth, broth dilution; PAO1).
The MIC of `CC(C)C[C@H](NC(=O)[C@H](CC(C)C)NC(=O)[C@H](CCCCN)NC(=O)[C@@H]1CCCN1C(=O)[C@H](CC(C)C)NC(=O)[C@H](CC(C)C)NC(=O)[C@H](CCCCN)NC(=O)[C@H](CC(C)C)NC(=O)[C@H](CC(C)C)NC(=O)[C@H](CO)NC(=O)CNC(=O)[C@H](Cc1ccccc1)NC(=O)[C@@H](N)Cc1ccccc1)C(N)=O` is reported as 50 to 100 µM (broth microdilution).
The MIC of `CC[P+](CC)(CC)[Au-][S+](C[C@H]1O[C@H](O[C@H]2O[C@H](COC(C)=O)[C@@H](OC(C)=O)[C@H](OC(C)=O)[C@H]2OC(C)=O)[C@H](OC(C)=O)[C@@H](OC(C)=O)[C@@H]1OC(C)=O)[Au-][P+](CC)(CC)CC.[Cl-]` is reported as greater than 194 µM (NCTC 13437).
The MIC of `O=C(O)CC[C@@H]1NC(=O)[C@H](CCC(=O)O)NC(=O)[C@H](CCC(=O)O)NC(=O)[C@H](Cc2c[nH]c3ccccc23)NC(=O)[C@H](Cc2c[nH]c3ccccc23)NC(=O)[C@H](Cc2c[nH]c3ccccc23)NC(=O)[C@H](Cc2c[nH]c3ccccc23)NC(=O)[C@H](CCC(=O)O)NC1=O` is reported as greater than 158 mg/L (broth microdilution; PAO1; 37 °C).
The MIC of `COc1ccc2ccc3c(c2c1)C=[N+]1C2CCCCC2[N+]2=Cc4ccccc4[O][Au-]21[O]3.F[P-](F)(F)(F)(F)F` (stereo not drawn) is reported as 20 µM (bacterial growth, broth microdilution; carbapenem-resistant clinical isolate; 24 h).
For `CC(C)C[C@H](NC(=O)[C@H](CC(N)=O)NC(=O)[C@H](CCCNC(=N)N)NC(=O)[C@@H](CC(C)C)NC(=O)[C@H](Cc1ccc(C(F)(F)F)cc1)NC(=O)[C@H](CC(=O)O)NC(=O)[C@H](CCCCN)NC(=O)[C@@H](CC(C)C)NC(=O)[C@H](CCCNC(=N)N)NC(=O)[C@H](CCC(N)=O)NC(=O)[C@@H](NC(=O)[C@@H](CC(C)C)NC(=O)[C@H](CCCNC(=N)N)NC(=O)[C@H](CCCCN)NC(=O)[C@H](Cc1ccc2ccccc2c1)NC(=O)CN)C(C)C)C(=O)N[C@H](C(N)=O)C(C)C`, the MIC was 6.2 to 12.5 µM (broth microdilution; PAO1).
With `COc1c(CC=C(C)C)c(O)cc2c1[C@@H]1Oc3c(ccc(O)c3CC=C(C)C)[C@@H]1CO2` the MIC was 128 mg/L (ATCC 10145).
`CC(=O)N[C@H](CCCCN)C(=O)N[C@H](CC(C)C)C(=O)N[C@H](CCCCN)C(=O)N[C@H](CO)C(=O)N[C@H](CC(C)C)C(=O)N[C@H](CC(C)C)C(=O)N[C@H](CCCCN)C(=O)N[C@@H](C(=O)N[C@H](CC(C)C)C(=O)N[C@H](CO)C(=O)N[C@H](CCCCN)C(=O)N[C@H](C)C(=O)N[C@H](CCCCN)C(=O)N[C@H](CCCCN)C(=O)N[C@H](CCCCN)C(=O)N[C@H](CC(C)C)C(=O)N[C@H](CC(C)C)C(=O)N[C@H](CCCCN)C(=O)N[C@@H](C(=O)N[C@H](C)C(=O)N[C@H](CC(C)C)C(=O)N[C@H](CCCCN)C(=O)N[C@H](C)C(=O)N[C@H](CC(C)C)C(=O)N[C@H](CO)C(=O)N[C@H](CCCCN)C(N)=O)[C@H](C)O)[C@H](C)O` has an MIC of 1.3 µM (broth microdilution; PAO1; 24 h, 37 °C).
`COc1ccc(-c2ccn(CC[C@](C)(C(=O)NO)S(C)(=O)=O)c(=O)c2)c(F)c1` has an MIC of 1 mg/L (microbial growth; UC12120).
With `COc1ccc2c(c1)[O][Au-]13[O]c4ccc5ccc(OC)cc5c4C=[N+]1C1CCCCC1[N+]3=C2.F[P-](F)(F)(F)(F)F` (stereo not drawn) the MIC was greater than 20 µM (bacterial growth, broth microdilution; carbapenem-resistant clinical isolate; 24 h).
With `CC[C@@H](C)[C@@H](NC(=O)[C@@H](C)NC(=O)[C@@H](CCCCN)NC(=O)[C@@H](CC(C)C)NC(=O)[C@@H](CC(C)C)NC(=O)[C@H](NC(=O)[C@@H](CCCCN)NC(=O)[C@@H](CC(C)C)NC(=O)[C@@H](CCCCN)NC(=O)[C@@H](CCCCN)NC(=O)[C@@H](CCCCN)NC(=O)[C@@H](CCCCN)NC(=O)[C@@H](C)NC(=O)[C@@H](CCCCN)NC(=O)[C@@H](CO)NC(=O)[C@@H](Cc1ccccc1)NC(=O)[C@H](NC(=O)[C@@H](CCCCN)NC(=O)[C@@H](CC(C)C)NC(=O)[C@@H](Cc1ccccc1)NC(=O)[C@@H](CO)NC(=O)[C@@H](CCCCN)NC(=O)[C@@H](Cc1c[nH]c2ccccc12)NC(=O)[C@@H](CCCCN)NC(C)=O)[C@H](C)O)[C@H](C)O)C(=O)N[C@H](CO)C(=O)N[C@H](CCCCN)C(N)=O` the MIC was 2.5 µM (broth microdilution; PAO1; 24 h, 37 °C).
With `CCn1cc(C(=O)NCCNCCO)c(=O)c2cc(OC)c(OCc3cccc(F)c3)cc21` the MIC was less than 0.25 mg/L (ATCC 27853; ≥80% growth inhibition).
With `CCCCCCCCCC(=O)NCCCC[C@@H](NC(=O)[C@@H](CC(C)C)NC(=O)[C@@H](CCCCN)NC(=O)[C@@H](CCCCNC(=O)[C@@H](CC(C)C)NC(=O)[C@@H](CCN)NC(=O)[C@@H](CCCCNC(=O)[C@@H](Cc1ccccc1)NC(=O)[C@H](N)CCCN)NC(=O)[C@@H](Cc1ccccc1)NC(=O)[C@H](N)CCCN)NC(=O)[C@@H](CC(C)C)NC(=O)[C@@H](CCN)NC(=O)[C@@H](CCCCNC(=O)[C@@H](Cc1ccccc1)NC(=O)[C@H](N)CCCN)NC(=O)[C@@H](Cc1ccccc1)NC(=O)[C@H](N)CCCN)C(N)=O` the MIC was 4 mg/L (broth microdilution; PAO1; 37 °C).
With `COc1ccc2ccc3c(c2c1)C=[N+]1C2CCCCC2[N+]2=Cc4ccc(-c5ccccc5)cc4[O][Au-]21[O]3.F[P-](F)(F)(F)(F)F` (stereo not drawn) the MIC was greater than 20 µM (bacterial growth, broth microdilution; carbapenem-resistant clinical isolate; 24 h).
`COc1c2c(cc3oc(=O)cc(-c4ccc(Cl)cc4)c13)C(=O)c1cc(C)cc(O)c1C2=O` has an MIC of 64 mg/L (microbial growth).
With `COc1ccc2ccc3c(c2c1)C=[N+]1C2CCCCC2[N+]2=Cc4c(OC)cccc4[O][Au-]21[O]3.F[P-](F)(F)(F)(F)F` (stereo not drawn) the MIC was 20 µM (bacterial growth, broth microdilution; carbapenem-resistant clinical isolate; 24 h).
The MIC of `CC[C@@H](C)[C@@H](NC(=O)[C@@H](C)NC(=O)[C@@H](CCCCN)NC(=O)[C@@H](CC(C)C)NC(=O)[C@@H](C)NC(=O)[C@H](NC(=O)[C@@H](CCCCN)NC(=O)[C@@H](CC(C)C)NC(=O)[C@H](NC(=O)[C@@H](CCCCN)NC(=O)[C@@H](CCCCN)NC(=O)[C@@H](CCCCN)NC(=O)[C@@H](C)NC(=O)[C@@H](CCCCN)NC(=O)[C@@H](CO)NC(=O)[C@@H](Cc1ccccc1)NC(=O)[C@H](NC(=O)[C@@H](CCCCN)NC(=O)[C@@H](CC(C)C)NC(=O)[C@@H](Cc1ccccc1)NC(=O)[C@@H](CO)NC(=O)[C@@H](CCCCN)NC(=O)[C@@H](Cc1c[nH]c2ccccc12)NC(=O)[C@@H](CCCCN)NC(C)=O)[C@H](C)O)C(C)C)[C@H](C)O)C(=O)N[C@H](CO)C(=O)N[C@H](CCCCN)C(N)=O` is reported as 1.3 µM (broth microdilution; PA14; 24 h, 37 °C).
The MIC of `CC1(C)S[C@@H]2[C@H](NC(=O)[C@H](NC(=O)C3=C(O)C(c4ccccc4F)NC3=O)c3ccccc3)C(=O)N2[C@H]1C(=O)O` (stereo partly drawn) is reported as 25 mg/L (broth microdilution; PAO1, Mueller-Hinton broth).
The MIC of `N=C(N)NCCC[C@H](NC(=O)[C@H](Cc1c[nH]c2ccccc12)NC(=O)[C@H](CCC(N)=O)NC(=O)[C@H](Cc1c[nH]c2ccccc12)NC(=O)[C@H](CCCNC(=N)N)NC(=O)[C@@H](N)CCCNC(=N)N)C(=O)NCCCC[C@H](NC(=O)[C@H](CCCNC(=N)N)NC(=O)[C@H](Cc1c[nH]c2ccccc12)NC(=O)[C@H](CCC(N)=O)NC(=O)[C@H](Cc1c[nH]c2ccccc12)NC(=O)[C@H](CCCNC(=N)N)NC(=O)[C@@H](N)CCCNC(=N)N)C(=O)NCCCCCC(N)=O` is reported as 23 µM (broth microdilution; ATCC 27853; 24 h, 37 °C).
`CC(=O)N[C@H](CCCCN)C(=O)N[C@H](CC(C)C)C(=O)N[C@H](CCCCN)C(=O)N[C@H](CO)C(=O)N[C@H](CC(C)C)C(=O)N[C@H](CC(C)C)C(=O)N[C@H](CCCCN)C(=O)N[C@@H](C(=O)N[C@H](CC(C)C)C(=O)N[C@H](CO)C(=O)N[C@H](CCCCN)C(=O)N[C@H](C)C(=O)N[C@H](CCCCN)C(=O)N[C@H](CCCCN)C(=O)N[C@H](CCCCN)C(=O)N[C@H](CCCCN)C(=O)N[C@H](CC(C)C)C(=O)N[C@H](CCCCN)C(=O)N[C@@H](C(=O)N[C@H](CC(C)C)C(=O)N[C@H](CC(C)C)C(=O)N[C@H](CCCCN)C(=O)N[C@H](C)C(=O)N[C@H](CC(C)C)C(=O)N[C@H](CO)C(=O)N[C@H](CCCCN)C(N)=O)[C@H](C)O)[C@H](C)O` has an MIC of 1.3 µM (broth microdilution; PAO1; 24 h, 37 °C).
`COc1ccc2ccc3c(c2c1)C=[N+]1C2CCCCC2[N+]2=Cc4cccc(C)c4[O][Au-]21[O]3.F[P-](F)(F)(F)(F)F` (stereo not drawn) gave an MIC of greater than 20 µM (bacterial growth, broth microdilution; carbapenem-resistant; 24 h).
With `CO[C@@H](C(N)=O)[C@H](NC(=O)c1ccc(NC(=O)c2ccc([N+](=O)[O-])cc2)cc1)C(=O)Nc1ccc(C(=O)Nc2ccc(C(=O)Nc3ccc(C(=O)O)cc3)c(O)c2OC(C)C)cc1` the MIC was 4 mg/L (DSM 24600 ESBL 1).
`CC(C)=CCc1cc([C@@H]2CC(=O)c3ccc(O)c(CC=C(C)C)c3O2)c(O)c(CC=C(C)C)c1O` gave an MIC of 128 mg/L (ATCC 10145).
The MIC of `CCOC(=O)c1ccc2c(c1)n(CC)[c]([Au-]([Cl])([Cl])[Cl])[n+]2CC` is reported as 58.2 µM (broth dilution; PA7 DSM 24068; 20 h, 37 °C).

Some of these lines once more:
With `COc1ccc2ccc3c(c2c1)C=[N+]1C2CCCCC2[N+]2=Cc4ccc(-c5ccccc5)cc4[O][Au-]21[O]3.F[P-](F)(F)(F)(F)F` (stereo not drawn) the MIC was greater than 20 µM (bacterial growth, broth microdilution; carbapenem-resistant clinical isolate; 24 h).
With `CCn1cc(C(=O)NCCNCCO)c(=O)c2cc(OC)c(OCc3cccc(F)c3)cc21` the MIC was less than 0.25 mg/L (ATCC 27853; ≥80% growth inhibition).
